Experimental data collected from several papers.
Numbered parts are unrelated; each lists some results of a single study.
Chain of UniProt P57078 (whole entry, looked up): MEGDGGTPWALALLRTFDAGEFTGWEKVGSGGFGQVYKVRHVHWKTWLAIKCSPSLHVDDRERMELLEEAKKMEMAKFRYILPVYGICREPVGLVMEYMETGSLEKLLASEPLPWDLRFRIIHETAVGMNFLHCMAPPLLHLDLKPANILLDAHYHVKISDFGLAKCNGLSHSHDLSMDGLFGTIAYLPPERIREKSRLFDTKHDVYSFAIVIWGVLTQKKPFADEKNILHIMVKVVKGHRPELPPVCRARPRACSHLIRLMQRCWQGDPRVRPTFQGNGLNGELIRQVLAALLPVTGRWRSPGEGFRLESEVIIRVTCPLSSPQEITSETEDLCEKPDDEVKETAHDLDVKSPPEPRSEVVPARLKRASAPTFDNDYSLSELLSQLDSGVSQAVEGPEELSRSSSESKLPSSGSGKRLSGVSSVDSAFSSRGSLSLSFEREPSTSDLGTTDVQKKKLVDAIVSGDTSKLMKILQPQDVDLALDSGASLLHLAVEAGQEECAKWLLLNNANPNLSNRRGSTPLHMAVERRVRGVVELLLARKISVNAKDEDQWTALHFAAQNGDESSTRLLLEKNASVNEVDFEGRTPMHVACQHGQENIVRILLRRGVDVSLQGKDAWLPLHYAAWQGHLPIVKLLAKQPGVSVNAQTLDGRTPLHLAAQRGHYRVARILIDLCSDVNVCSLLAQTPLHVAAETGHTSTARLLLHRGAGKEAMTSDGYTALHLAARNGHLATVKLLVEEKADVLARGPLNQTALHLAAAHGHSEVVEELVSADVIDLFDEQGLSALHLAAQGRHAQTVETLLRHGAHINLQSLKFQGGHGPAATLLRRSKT

Study 1 — technique: RNAcompete; form: RNA; medium: in vitro; concentration: 20 nM; setting: 7-mer, probes averaged, single round; baseline: mean of 7-mers; reading: higher = stronger binding
Target: PABPC1L2, full length, GST fusion (mouse, UniProt A0ABA7IW68)
Construct (chain): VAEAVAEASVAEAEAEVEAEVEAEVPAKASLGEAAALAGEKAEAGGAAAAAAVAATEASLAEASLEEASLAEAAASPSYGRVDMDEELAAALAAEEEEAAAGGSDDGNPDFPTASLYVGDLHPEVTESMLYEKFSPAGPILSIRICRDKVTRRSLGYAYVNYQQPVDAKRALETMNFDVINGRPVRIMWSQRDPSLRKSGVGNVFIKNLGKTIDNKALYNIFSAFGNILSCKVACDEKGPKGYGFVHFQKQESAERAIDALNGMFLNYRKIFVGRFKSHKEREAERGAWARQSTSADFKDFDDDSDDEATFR
`ACUGUGA` has a 7-mer Z-score of -0.188.
With `UAUGCUC` the 7-mer Z-score was -0.142.
The 7-mer Z-score of `UCAGAUC` is reported as -0.164.
The 7-mer Z-score of `AUCUACG` is reported as -0.0989.
`UACGGUA` has a 7-mer Z-score of -0.135.
The 7-mer Z-score of `AUGGCAA` is reported as 0.0279.
With `GUAGUAC` the 7-mer Z-score was -0.146.
The 7-mer Z-score of `GAUGAAC` is reported as -0.0573.

Study 2 — technique: protein-binding microarray; form: double-stranded DNA, one strand shown; medium: in vitro; concentration: not given; reading: higher = stronger binding
Target: Protein max, full length (MAX, Homo sapiens, UniProt P61244-2, residues 1-151)
Setting: k-mer, scored over probes, only values ≥0.25
`ACGGGGGC` gave an E-score of 0.279.
With `CGCACGCA` the E-score was 0.365.
With `CATGACTC` the E-score was 0.27.
`CCGTGTAC` gave an E-score of 0.252.
`CGCTGCCA` gave an E-score of 0.266.
`CATGGAAC` has an E-score of 0.291.
For `CATCCACG`, the E-score was 0.357.
`AGACGCAT` has an E-score of 0.26.

Mixed results
With `PhoQ, residues 284 288 289 292 302 303 GASLAW` the fold induction was 2.97 (PhoP, residues 12 14 15 18 19 AQALL (Escherichia coli, UniProt P23836); Sort-seq, item: YFP reporter; E. coli; PhoQ-PhoP variant library, with: 10 µM Mg2+; baseline: high Mg2+ state, higher = stronger signaling).
The remaining binding of `O=C(NS(=O)(=O)c1ccc(NCC2CCOCC2)c([N+](=O)[O-])c1)c1ccc(N2CCN(Cc3ccc(C(F)(F)F)cc3-c3ccc(Cl)cc3)CC2)cc1Oc1cnc2[nH]ccc2c1` is reported as 75% (RIPK4 (Homo sapiens, UniProt P57078); cell-free assay, competition with immobilised ligand; 1 µM).

Repeated from above (study 1):
`ACUGUGA` has a 7-mer Z-score of -0.188.
With `UAUGCUC` the 7-mer Z-score was -0.142.
The 7-mer Z-score of `UCAGAUC` is reported as -0.164.
